Results from different studies.
Each line is one published result; not all experiments were run side by side.

SMILES	assay	test system	setting	scale	quantity	value
CSc1cc(C)nc(SC)c1NC(=O)CN1CCN(CCSc2nc3ccccc3[nH]2)CC1	–	mouse Crl:CD1 (ICR) female, cerebrum	intranasal repeated, 162 µg in 7 N HCl, 15 min, 7 days dosing	–	concentration	44 ng/g
Nc1scc2c(C(=O)NC3CC3)nn(-c3ccc(Cl)cc3)c(=O)c12	–	female mouse, brain	intraperitoneal, 5 mg/kg, 1 h, single dose	–	concentration	> 2000 nM
Cn1c(-c2ccc(C(N)=O)cc2F)nnc1C(C)(C)Oc1c(F)cc(Cl)cc1F	–	healthy young Japanese subjects, plasma	oral, 50 mg once daily, day 18, 14 days dosing	–	half-life median	27.3 h
O=c1cc2n(cc1O)CCN(Cc1ccccc1)C2	–	rat, plasma	oral, 100 mg/kg, 4 h, unbound	–	concentration	5450 nM
COc1ccc2c(c1)c(CC(=O)O)c(C)n2C(=O)c1ccc(Cl)cc1	cytochrome c release, ELISA	BALB/cByJ female mouse liver mitochondria	30 min	relative to: alamethicin maximal release	EC20	> 200 µM
Cc1cc(Oc2cnc(C)nc2)cc(C(=O)Nc2ccc(F)cn2)n1	–	male Sprague-Dawley rat, brain	oral, 10 mg/kg, 1 h, unbound	–	concentration	142 nM
N[C@@H](CC(=O)O)Cn1nnc(-c2ccc(Oc3ncc(Cl)cc3F)cc2)n1	–	human, plasma	20 mg single dose, 24 h	–	concentration	1.2 ng/mL
NC12CC3CC(CC(C3)C1)C2	mitochondrial swelling	BALB/cByJ female mouse liver mitochondria	30 min, added: succinate + rotenone	relative to: CaCl2 maximal swelling	EC20	> 800 µM
O=c1cc2n(cc1O)CCN(Cc1c(F)cccc1Cl)C2	–	rat, brain	oral, 100 mg/kg, 4 h, unbound	–	concentration	493 nM
S=C(NCCCc1c[nH]cn1)NCCCN(Cc1ccc(Cl)c(Cl)c1)c1ccc(Br)cn1	–	male C57BL/6 mouse, plasma	intraperitoneal, 30 mg/kg, 8 h	–	concentration	754 ng/mL
Nc1nc2c(ccc3ccccc32)s1	–	mouse, plasma	intraperitoneal, 10 mg/kg, 2 h	–	concentration	5500 nM
O=c1cc2n(cc1O)CCN(Cc1ccccc1Cl)C2	–	rat, plasma	oral, 100 mg/kg, 4 h, unbound	–	concentration	751 nM
O=c1cc(-c2ccccc2)oc2c(O)c(O)ccc12	–	male CD-1 mouse, plasma	oral, 50 mg/kg, 8 h	–	concentration	5 ng/mL

Some of these lines once more:
SMILES	assay	test system	setting	scale	quantity	value
Nc1nc2c(ccc3ccccc32)s1	–	mouse, plasma	intraperitoneal, 10 mg/kg, 2 h	–	concentration	5500 nM
O=c1cc(-c2ccccc2)oc2c(O)c(O)ccc12	–	male CD-1 mouse, plasma	oral, 50 mg/kg, 8 h	–	concentration	5 ng/mL
